Published values gathered from unrelated publications.
Several values in a cell are separate wells, animals, samples, runs or records. ± marks the error that the study gave.
Chain of UniProt Q86X55 (whole entry, looked up): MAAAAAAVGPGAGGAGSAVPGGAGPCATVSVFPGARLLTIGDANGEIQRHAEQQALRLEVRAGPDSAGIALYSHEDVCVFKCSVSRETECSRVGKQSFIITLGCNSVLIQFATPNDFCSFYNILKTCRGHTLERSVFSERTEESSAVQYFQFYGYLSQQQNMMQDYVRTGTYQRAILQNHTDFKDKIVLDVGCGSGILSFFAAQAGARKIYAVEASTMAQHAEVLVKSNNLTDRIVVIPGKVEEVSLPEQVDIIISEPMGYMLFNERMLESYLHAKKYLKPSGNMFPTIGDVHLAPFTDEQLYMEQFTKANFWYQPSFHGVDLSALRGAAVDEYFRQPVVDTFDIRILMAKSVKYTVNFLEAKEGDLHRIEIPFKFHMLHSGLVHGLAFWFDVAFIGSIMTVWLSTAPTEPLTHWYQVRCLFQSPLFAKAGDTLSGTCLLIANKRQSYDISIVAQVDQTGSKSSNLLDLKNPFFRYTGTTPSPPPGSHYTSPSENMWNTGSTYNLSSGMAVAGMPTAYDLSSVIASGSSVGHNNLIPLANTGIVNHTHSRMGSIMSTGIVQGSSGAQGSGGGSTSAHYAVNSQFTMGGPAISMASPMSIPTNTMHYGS

CCOC(=O)C1CC(CC)C2C=CC3CCN(C(=O)C4CCC5C=CC6(CCCN6C(=O)C(Cc6ccccc6Cl)NC(C)=O)C(=O)N54)C3C(=O)N12 (stereo not drawn) — result for viability: “not toxic” (B16-F1; 180 µM, 24 h, Ena/VASP knockout, and wild type).
Nc1ncc(-c2cc(-c3cnn(CC(F)(F)F)c3)ncc2F)nc1C(=O)NC1CNCC(F)C1 (stereo not drawn) has a remaining binding of 68% (CAMK1D; KINOMEscan; 1 µM; relative to: DMSO control).
COc1ccc(Cn2cc(CO[C@@H]3O[C@H]4[C@H](OC[C@H]4O)[C@H]3N=[N+]=[N-])nn2)cc1: viability “not toxic” (CHO-K1; cytotoxicity, CellTiter-Glo; up to 30 µM, 72 h).
Cc1cc(Cl)cc(-c2ccnc3cc(CN4C(=O)C5C(C4=O)C5(C)C)sc23)c1C[C@@H]1CNCCO1 (stereo partly drawn) gave a viability of 0.859% and -0.131% and 0.672% (Capan-1 USP7 inhibitor-resistant pool; SRB; 20 µM, 5 days).
For Cc1nc(Nc2ncc(C(=O)Nc3c(C)cccc3Cl)s2)cc(N2CCN(C(=O)CCOCCNC(=O)CN)CC2)n1, the viability was 99% and 98% (K562; cell growth or viability, CCK-8; 100 pM).
The viability of CN1CCCNC(=O)c2cccc(c2)C(=O)NCCCN(C)CCCNc2cccc3c2C(=O)c2cccc(c2C3=O)NCCC1 is reported as 82.9% (Ca9-22; cell growth or viability, CCK-8; 50 nM, 48 h).
O=C(OC[C@@]1(O)C(=O)C=C[C@H]2[C@@H]1[C@H]1C=C[C@@H]2C(=O)[C@]1(O)COC(=O)c1ccccc1)c1ccccc1 gave a viability of 66.1% (K562; cell growth or viability, MTT; 25 µg/mL).
O=C(O)c1c(O)cc(O[C@@H]2O[C@H](CO)[C@@H](O)[C@H](O)[C@H]2O)cc1/C=C/c1ccccc1 has a viability of > 50% (MLE12; cell growth or viability, crystal violet; 50 µM, 48 h).
The viability of C=Cc1c(C)c2cc3nc(c(CC(=O)OCCOCCOCCOC)c4[nH]c(cc5nc(cc1[nH]2)C(C)=C5CC)c(C)c4C(=O)O)[C@@H](CCC(=O)OCCOCCOCCOC)[C@@H]3C is reported as ~20% (OVCAR-5; MTT; 1.0 µM, 4 h, dark).
The tissue uptake of CC(C)C[C@H](NC(=O)[C@@H](CCCCNC(=O)CCCCCCCCCCNC(=O)CN1CCN(CC(=O)O)CCN(CC(=O)O)CCN(CC(=O)O)CC1)NC(=O)[C@H](Cc1ccc(O)cc1)NC(=O)[C@H](CO)NC(=O)[C@H](Cc1c[nH]c2ccccc12)NC(=O)[C@H](Cc1cnc[nH]1)NC(=O)[C@@H]1CCC(=O)N1)C(=O)N[C@@H](CCCN=C(N)N)C(=O)N1CCC[C@H]1C(=O)NCC(N)=O [indium-111 labelled] is reported as 3.46 ± 4.2 %ID (athymic nude mouse, female, intestines; intravenous, 0.037 MBq, 2 h).
Under “log2 fold change”, Cc1ncsc1-c1ccc(C(C)NC(=O)C2CC(O)CN2C(=O)C(NC(=O)CCCCCCCCCCN2CCCC(Nc3ncc(Cl)c(Nc4ccccc4S(=O)(=O)C(C)C)n3)C2)C(C)(C)C)cc1 (stereo not drawn) is recorded as -1.84 (22Rv1; RNA-seq, item: VIL1 mRNA; concentration not given; relative to: DMSO).
For CN(C)C/C=C/C(=O)Nc1ccc2nc(NCCCCCN(C)C)nc(NCCCCCCN(C)C)c2c1, the inhibition was 52% (CARM1 (Homo sapiens, UniProt Q86X55); enzyme activity, inhibitor, radiometric; 10 µM).
COC1CN([C@H]2CC[C@H]([C@@]3(C)Oc4c(Cl)cc(C(=O)NCc5c(SC)cc(C)[nH]c5=O)c(C)c4O3)CC2)C1 — result for “log2 fold change”: 0.184 (RNA-seq, item: RASL10A mouse homolog; mouse, HT-1376 xenograft, whole blood; dose not given; relative to: vehicle).
CCc1c(-c2ccc3[nH]ncc3c2)cnc(N)c1-c1ccc(O)cc1 gave a viability of 106% and 105% (CHP-212 resistant sublines (heterozygous USP7 V517F); cell viability; 1.562 µM).
For C=CC(=O)Nc1cccc(Cn2ncc3cnc(Nc4cnn(CCOC)c4)nc32)c1, “percent of control” read 80% (MAP3K2 human; binding, KINOMEscan; 100 nM; lower = stronger binding).
For CC(C)=CCc1c(O)c(CC=C(C)C)c2occ(-c3ccc(O)c(O)c3)c(=O)c2c1O, the viability was 95.8% (K562; cell growth or viability, MTT; 100 µg/mL).
For O=C(C=Cc1ccccc1)OC1C=CC(O)C(O)(COC(=O)c2ccccc2)C1O (single isomer, unassigned; (-)), the viability was 72.6% (K562; cell growth or viability, MTT; 100 µg/mL).
With COc1cc(N2CCN(C(=O)CN)CC2)ccc1Nc1ncc(Cl)c(Nc2ccccc2P(C)(C)=O)n1 the viability was 26% (NCI-H3122; cell growth or viability, CCK-8; 0.25 µM, 48 h).
The AUC(0-inf) of C=C(NC(=O)c1csc(-c2nc3c(cc2O)-c2nc(cs2)C(=O)NC(C(C)O)C(=O)NC(=C(C)OC)c2nc(cs2)C(=O)NC2c4nc(cs4)C(=O)NC(COC(=O)c4c5c6c(cccc6n4O)COC(=O)C(OC4CC(C)(O)C(N(C)C)C(C)O4)C2OC5)c2nc-3cs2)n1)C(N)=O (stereo not drawn) is reported as 5890 ng·h/mL (female Sprague-Dawley rats, plasma; intravenous infusion, 18 mg/kg).
The viability of COc1cc(OC)c(-c2coc3c4c(cc(O)c3c2=O)OC(C)(C)C=C4)cc1OC is reported as 77.9% (K562; cell growth or viability, MTT; 100 µg/mL).
With O=CCNCCOn1c(=O)n(OCCNCCO)c(=O)n(OCCNCCOn2c(=O)n(OCCNCCO)c(=O)n(OCCNCCO)c2=O)c1=O the viability was 66.9% (HUVEC; cell growth or viability, MTT; 25 µg/mL, 24 h).

Repeated from above:
With O=CCNCCOn1c(=O)n(OCCNCCO)c(=O)n(OCCNCCOn2c(=O)n(OCCNCCO)c(=O)n(OCCNCCO)c2=O)c1=O the viability was 66.9% (HUVEC; cell growth or viability, MTT; 25 µg/mL, 24 h).
